Measurements collected from several papers.
± gives the spread as reported.

With CC[C@H](C)[C@@H]1NC(=O)[C@H](Cc2ccc(-c3ccccc3)cc2)NC(=O)[C@H](CC(C)C)NC(=O)[C@@H]2[C@@H](c3ccccc3)CCN2C(=O)[C@H](NC(=O)[C@@H](CCCNC(=N)N)NC(=O)[C@@H](CCCNC(=N)N)NC(C)=O)CSCSC[C@@H](C(=O)N[C@H](CCCNC(=N)N)C(=O)N[C@H](CCCNC(=N)N)C(N)=O)NC(=O)[C@H](C(C)C)NC(=O)[C@@H]2CCCN2C(=O)[C@H](CC(=O)O)NC(=O)[C@H](Cc2ccc(O)cc2)NC(=O)[C@](C)(CO)NC1=O the IC50 was 4000 nM (AsPC-1; AlphaScreen, refers to: pERK; 18 h).
For O=C1NCCC12CCN(c1c(Cl)cncc1-c1ccc3cccnc3c1)CC2, the IC50 was 1430 ± 760 nM (7dF3; WNT reporter gene, inhibitor).
With O=C(Nc1ccc(C2CCCCC2)cc1)c1cn[nH]c1 the hepatic clearance was 20 mL/min/kg (dog liver microsomes; 1 µM).
For C[C@H](Nc1ccc2c(c1)OCCn1cc(N3C(=O)OC[C@H]3C(F)F)nc1-2)C(N)=O, the IC50 was 370 nM (SNU-1076; cell growth, CellTiter-Glo; 120 h).
CC1(C)CC(=O)C2=C(C1)Oc1ccc(Cl)cc1C2n1nnc2ccccc21 (stereo not shown) has an IC50 of 100 to 1000 µg/mL (3T3-L1 mature adipocytes; MTT; 72 h).
For CCCCN1C[C@H](O)[C@@H](O)[C@@H](O)[C@H]1CO, the IC50 was 34800 nM (sample I patient fibroblasts; acidic compartment staining, LysoTracker Red imaging; 216 h).
With Cc1ccc(C(=O)Nc2ccc(CN3CCN(C)CC3)c(C(F)(F)F)c2)cc1C#Cc1cnc2cccnn12 the IC50 was 41 nM (7dF3; WNT reporter gene, inhibitor).
With CC(C)C[C@H](NC(=O)C[C@H](O)[C@H](CC(C)C)NC(=O)[C@H](Cc1c[nH]cn1)NC(=O)CNC(=O)[C@@H](NC(=O)[C@H](C)NC(=O)[C@H](Cc1c[nH]c2ccccc12)NC(=O)[C@H](CCC(N)=O)NC(=O)[C@@H](Cc1ccccc1)NC(=O)COCCOCCNC(=O)CCC(C(=O)O)N1CCN(CC(=O)O)CCN(CC(=O)O)CCN(CC(=O)O)CC1)C(C)C)C(N)=O (stereo partly shown) [lutetium-177 labelled] the tissue uptake was 0.4 ± 0.1 %ID/g (BALB/c nu/nu mice, skin; intravenous, 50 pmol, 1 h, added: PA 300 µg).
For C[C@@H](N)COc1ccc(-c2cnc3ccc(N[C@H](C)c4cccc(F)c4)nn23)cc1, the IC50 was 15 nM (HCC78 (SLC34A2-ROS1); cell viability).
The IC50 of Cc1cc(Nc2ncc(Cl)c(Nc3ccccc3S(=O)(=O)C(C)C)n2)c(OC(C)C)cc1C1CCNCC1 is reported as 150 ± 40 nM (Rh28 (alveolar rhabdomyosarcoma); cell growth; 3 days).
For COc1cccc2c1C(=O)c1c(O)c3c(c(O)c1C2=O)C[C@@](O)(C(=O)CO)C[C@@H]3O[C@H]1C[C@H](N)[C@H](O)[C@H](C)O1, the IC50 was 120 nM (HCT-116 CDK4 knockout; cell growth, SRB).
With CCCCC[C@@H]1NC(=O)[C@@H]2CCCN2C(=O)[C@H](CC(=O)O)NC(=O)[C@H](Cc2ccc(O)cc2)NC(=O)[C@H](CO)NC(=O)[C@H]([C@@H](C)CC)NC(=O)[C@H](Cc2ccc(-c3ccccc3)cc2)NC(=O)[C@H](CC(C)C)NC(=O)[C@@H]2[C@@H](c3ccccc3)CCN2C(=O)[C@H](NC(=O)[C@H](CCCNC(=N)N)NC(=O)[C@H](CCCNC(=N)N)NC(C)=O)CSCSC[C@@H](C(=O)N[C@@H](CCCNC(=N)N)C(=O)N[C@@H](CCCNC(=N)N)C(N)=O)NC1=O the IC50 was 7000 nM (AsPC-1; AlphaScreen, refers to: pERK; 2 h).
[Se]=c1n(C23CC4CC(CC(C4)C2)C3)ccn1C12CC3CC(CC(C3)C1)C2 has an IC50 of 9400 nM (H157 lung carcinoma cells; cell viability, MTT; 72 h).
For COc1cc2nccc(Oc3ccc(NC(=O)C4(C(=O)Nc5ccc(F)cc5)CC4)cc3)c2cc1OC, the IC50 was 4290 ± 1130 nM (Rh28 (alveolar rhabdomyosarcoma); cell growth; 3 days).
Cc1c(C(=O)O)ccc2c3n(nc12)[C@@H]1[C@H](C3)N(CC2CC2)[C@@]2(C(=O)Nc3cc(Cl)ccc32)[C@H]1c1cccc(Cl)c1F has an IC50 of 4.6 to 9800 nM (cancer cell lines; cell viability, PRISM pooled screen; 120 h, range across all lines).
For CN(Cc1cnc2nc(N)nc(N)c2n1)c1ccc(C(=O)N[C@@H](CCC(=O)O)C(=O)O)cc1, the IC50 was 610 nM (NMP-derived lumbar spinal cord tissues; neural rosette emergence).
O=C(c1ccc(C2CCCCC2)cc1)N1CC(O)C1 gave a hepatic clearance of 48 mL/min/kg (hepatocyte stability; cryopreserved rat hepatocytes; 1 µM).
With C=CC(=O)Nc1cc(Nc2nccc(-c3cn(C)c4ccccc34)n2)c(OC)cc1N(C)CCN(C)C the IC50 was 35 ± 1.89 nM (Ba/F3 EGFR D770_N771insSVD; cell growth, CellTiter-Glo; 72 h).
For Cc1cc(N2CCc3c(c(C)nn3CC34CCC(NC(=O)[C@@H]5COCCN5)(CC3)CC4)C2)c2cnn(C)c2n1, the IC50 was 1.6 ± 0.2 nM (human PBMC; IFN-driven gene expression, inhibitor, qRT-PCR, refers to: IFI44L mRNA; two donors, added: ssRNA).
The IC50 of CC[C@H](C)[C@@H]1NC(=O)[C@H](Cc2ccc(-c3ccccc3)cc2)NC(=O)[C@H](CC(C)C)NC(=O)[C@@H]2[C@@H](c3ccccc3)CCN2C(=O)[C@H](NC(=O)[C@@H](CCCNC(=N)N)NC(=O)[C@@H](CCCNC(=N)N)NC(=O)[C@H](CCCCN=[N+]=[N-])NC(C)=O)CSCSC[C@@H](C(=O)N[C@H](CCCNC(=N)N)C(=O)N[C@H](CCCNC(=N)N)C(N)=O)NC(=O)[C@H](C(C)C)NC(=O)[C@@H]2CCCN2C(=O)[C@H](CC(=O)O)NC(=O)[C@H](Cc2ccc(O)cc2)NC(=O)[C@](C)(CO)NC1=O is reported as 7000 nM (AsPC-1; AlphaScreen, refers to: pERK; 18 h).
CCCCCN1C[C@H](O)[C@@H](O)[C@H](O)[C@@H]1CO gave an IC50 of 820 nM (Sandhoff disease patient fibroblasts; glycosphingolipid lowering, LC-MS/MS, refers to: GM3 d18:1/23:0).
For COc1cccc2c1C(=O)c1c(O)c3c(c(O)c1C2=O)C[C@@](O)(C(=O)CO)C[C@@H]3O[C@H]1C[C@H](N)[C@H](O)[C@H](C)O1, the IC50 was 1430 ± 102 nM (KBv200 ABCB1-overexpressing).
C[C@@H](Oc1cc(-n2cnc3ccc(OC[C@@H](O)CO)cc32)sc1C(N)=O)c1ccccc1Cl has a selectivity of > 2.7 (Trypanosoma brucei; unit not given; relative to: pEC50 T. brucei minus pTC50 HepG2).
CCCCN1C[C@H](O)[C@@H](O)[C@H](O)[C@H]1CO has an IC50 of 6850 nM (Sandhoff disease patient fibroblasts; glycosphingolipid lowering, LC-MS/MS, refers to: GM3 d18:1/23:0).
For CC(=O)O[C@@]12CO[C@@H]1C[C@H](O)[C@@]1(C)C(=O)[C@H](O)C3=C(C)[C@@H](OC(=O)[C@H](O)[C@@H](NC(=O)OC(C)(C)C)c4ccccc4)C[C@@](O)([C@@H](OC(=O)c4ccccc4)[C@H]21)C3(C)C, the IC50 was 41.6 nM (Abrams canine osteosarcoma; cell viability, resazurin; 72 h).
